# Experimental data gathered from unrelated publications.
# Amino acid sequences for entries named in this document (tags omitted). Residues count along the entry.
# UniProt P46934, whole entry, looked up: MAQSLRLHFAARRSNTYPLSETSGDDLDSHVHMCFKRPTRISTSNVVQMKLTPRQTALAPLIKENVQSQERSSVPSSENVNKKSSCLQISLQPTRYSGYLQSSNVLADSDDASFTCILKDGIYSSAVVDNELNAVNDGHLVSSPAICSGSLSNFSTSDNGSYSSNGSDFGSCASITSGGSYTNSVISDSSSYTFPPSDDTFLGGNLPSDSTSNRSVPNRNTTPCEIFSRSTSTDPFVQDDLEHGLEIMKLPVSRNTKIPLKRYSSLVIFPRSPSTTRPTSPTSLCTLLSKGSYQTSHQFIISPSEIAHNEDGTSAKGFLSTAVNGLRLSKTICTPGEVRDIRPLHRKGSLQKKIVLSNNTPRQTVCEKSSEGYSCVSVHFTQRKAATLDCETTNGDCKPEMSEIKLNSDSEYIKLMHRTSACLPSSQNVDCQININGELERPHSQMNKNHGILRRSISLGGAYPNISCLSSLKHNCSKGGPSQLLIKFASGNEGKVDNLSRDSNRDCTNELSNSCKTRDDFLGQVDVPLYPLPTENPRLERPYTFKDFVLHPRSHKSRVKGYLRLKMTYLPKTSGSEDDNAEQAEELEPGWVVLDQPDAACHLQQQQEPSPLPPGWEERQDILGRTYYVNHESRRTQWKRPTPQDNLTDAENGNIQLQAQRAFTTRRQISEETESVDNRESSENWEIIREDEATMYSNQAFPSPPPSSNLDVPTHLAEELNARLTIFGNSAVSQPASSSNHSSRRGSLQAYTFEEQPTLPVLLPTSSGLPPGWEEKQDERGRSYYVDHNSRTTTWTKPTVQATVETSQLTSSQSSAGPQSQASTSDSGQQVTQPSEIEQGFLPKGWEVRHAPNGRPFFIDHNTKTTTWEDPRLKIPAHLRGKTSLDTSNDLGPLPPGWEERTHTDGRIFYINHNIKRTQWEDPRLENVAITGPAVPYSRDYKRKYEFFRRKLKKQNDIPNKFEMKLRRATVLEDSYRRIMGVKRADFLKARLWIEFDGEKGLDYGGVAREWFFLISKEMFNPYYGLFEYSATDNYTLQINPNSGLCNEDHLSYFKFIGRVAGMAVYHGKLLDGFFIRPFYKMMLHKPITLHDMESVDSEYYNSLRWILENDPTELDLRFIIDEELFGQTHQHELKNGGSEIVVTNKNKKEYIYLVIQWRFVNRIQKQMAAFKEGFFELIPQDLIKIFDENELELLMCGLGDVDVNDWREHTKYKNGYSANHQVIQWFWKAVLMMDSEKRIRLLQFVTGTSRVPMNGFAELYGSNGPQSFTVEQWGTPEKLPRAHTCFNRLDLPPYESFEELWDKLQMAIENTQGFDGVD
# UniProt Q14833, 33-912 limits assumed: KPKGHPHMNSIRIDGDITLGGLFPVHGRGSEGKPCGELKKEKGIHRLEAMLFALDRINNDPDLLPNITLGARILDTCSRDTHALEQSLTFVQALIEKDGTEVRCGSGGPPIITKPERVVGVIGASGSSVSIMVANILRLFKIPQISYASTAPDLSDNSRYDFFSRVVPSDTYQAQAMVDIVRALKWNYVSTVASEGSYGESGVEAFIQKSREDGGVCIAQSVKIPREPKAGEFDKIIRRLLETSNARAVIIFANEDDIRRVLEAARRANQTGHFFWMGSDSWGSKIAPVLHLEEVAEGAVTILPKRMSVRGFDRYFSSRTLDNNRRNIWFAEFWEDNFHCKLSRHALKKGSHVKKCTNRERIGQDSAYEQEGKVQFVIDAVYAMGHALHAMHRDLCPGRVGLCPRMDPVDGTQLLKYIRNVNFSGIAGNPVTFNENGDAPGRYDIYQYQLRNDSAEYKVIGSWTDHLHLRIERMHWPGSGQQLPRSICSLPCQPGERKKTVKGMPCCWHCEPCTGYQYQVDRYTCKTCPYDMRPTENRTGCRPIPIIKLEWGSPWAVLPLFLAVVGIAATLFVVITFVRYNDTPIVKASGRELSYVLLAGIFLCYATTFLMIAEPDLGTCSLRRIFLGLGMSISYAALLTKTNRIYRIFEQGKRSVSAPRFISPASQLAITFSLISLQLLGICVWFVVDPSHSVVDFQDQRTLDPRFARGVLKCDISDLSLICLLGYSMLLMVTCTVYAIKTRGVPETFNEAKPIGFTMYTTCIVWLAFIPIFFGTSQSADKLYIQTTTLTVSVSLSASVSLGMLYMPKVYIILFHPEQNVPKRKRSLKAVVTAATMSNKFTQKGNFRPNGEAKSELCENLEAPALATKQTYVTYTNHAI
# UniProt P35222, whole entry, looked up: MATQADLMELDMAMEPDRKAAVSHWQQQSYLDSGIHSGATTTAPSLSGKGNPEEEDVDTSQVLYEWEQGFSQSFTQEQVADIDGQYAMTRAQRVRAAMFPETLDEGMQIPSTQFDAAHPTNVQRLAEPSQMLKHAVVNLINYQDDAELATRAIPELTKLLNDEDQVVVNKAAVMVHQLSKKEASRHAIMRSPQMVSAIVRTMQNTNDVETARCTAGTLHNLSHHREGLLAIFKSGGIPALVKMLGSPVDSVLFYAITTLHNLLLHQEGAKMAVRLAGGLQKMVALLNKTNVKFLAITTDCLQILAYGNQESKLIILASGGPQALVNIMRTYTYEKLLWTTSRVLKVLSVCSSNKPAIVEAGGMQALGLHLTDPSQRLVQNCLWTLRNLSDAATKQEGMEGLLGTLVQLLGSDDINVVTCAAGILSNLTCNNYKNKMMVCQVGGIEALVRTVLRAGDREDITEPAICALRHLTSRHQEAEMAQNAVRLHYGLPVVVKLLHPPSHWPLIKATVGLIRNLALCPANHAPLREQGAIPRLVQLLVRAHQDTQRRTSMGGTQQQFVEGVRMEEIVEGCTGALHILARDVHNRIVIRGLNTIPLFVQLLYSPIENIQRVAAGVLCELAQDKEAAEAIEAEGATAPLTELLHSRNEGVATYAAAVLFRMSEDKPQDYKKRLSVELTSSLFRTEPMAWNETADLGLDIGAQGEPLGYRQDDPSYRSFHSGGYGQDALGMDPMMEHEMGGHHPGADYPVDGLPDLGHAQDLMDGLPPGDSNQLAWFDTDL
# UniProt O00519, whole entry: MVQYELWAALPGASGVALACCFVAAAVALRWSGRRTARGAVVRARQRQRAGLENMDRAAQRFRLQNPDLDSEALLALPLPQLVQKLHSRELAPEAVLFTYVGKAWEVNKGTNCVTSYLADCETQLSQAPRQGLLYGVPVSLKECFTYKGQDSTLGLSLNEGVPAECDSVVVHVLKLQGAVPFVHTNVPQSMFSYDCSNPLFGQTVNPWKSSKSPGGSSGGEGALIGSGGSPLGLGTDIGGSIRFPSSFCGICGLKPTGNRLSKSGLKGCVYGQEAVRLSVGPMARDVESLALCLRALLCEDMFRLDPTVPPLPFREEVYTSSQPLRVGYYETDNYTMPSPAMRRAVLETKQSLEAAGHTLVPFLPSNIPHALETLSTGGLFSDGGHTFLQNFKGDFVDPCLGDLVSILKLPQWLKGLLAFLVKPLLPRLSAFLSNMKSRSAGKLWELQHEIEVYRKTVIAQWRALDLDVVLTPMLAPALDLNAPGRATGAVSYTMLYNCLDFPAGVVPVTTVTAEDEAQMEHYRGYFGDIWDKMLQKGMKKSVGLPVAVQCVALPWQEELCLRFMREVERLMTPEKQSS
# UniProt P0DMS8, whole entry: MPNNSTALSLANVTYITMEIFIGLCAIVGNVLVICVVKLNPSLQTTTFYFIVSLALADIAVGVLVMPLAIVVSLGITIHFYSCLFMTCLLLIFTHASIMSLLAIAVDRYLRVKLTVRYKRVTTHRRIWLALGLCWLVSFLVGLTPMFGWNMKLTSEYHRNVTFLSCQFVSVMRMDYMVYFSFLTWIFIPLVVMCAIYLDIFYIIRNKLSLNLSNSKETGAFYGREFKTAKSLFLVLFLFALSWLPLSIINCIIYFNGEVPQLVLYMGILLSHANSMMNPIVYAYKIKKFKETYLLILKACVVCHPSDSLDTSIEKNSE
# UniProt Q07820, whole entry: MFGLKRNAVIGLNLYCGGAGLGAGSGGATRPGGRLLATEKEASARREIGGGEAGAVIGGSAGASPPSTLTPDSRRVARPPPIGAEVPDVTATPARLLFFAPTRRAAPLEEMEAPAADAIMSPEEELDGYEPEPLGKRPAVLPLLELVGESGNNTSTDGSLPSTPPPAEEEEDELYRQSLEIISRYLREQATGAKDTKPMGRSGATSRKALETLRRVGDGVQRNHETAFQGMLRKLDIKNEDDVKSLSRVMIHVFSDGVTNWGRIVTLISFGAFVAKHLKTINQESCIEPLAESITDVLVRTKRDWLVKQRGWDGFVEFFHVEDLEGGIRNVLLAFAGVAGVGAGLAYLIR
# UniProt Q06187, whole entry: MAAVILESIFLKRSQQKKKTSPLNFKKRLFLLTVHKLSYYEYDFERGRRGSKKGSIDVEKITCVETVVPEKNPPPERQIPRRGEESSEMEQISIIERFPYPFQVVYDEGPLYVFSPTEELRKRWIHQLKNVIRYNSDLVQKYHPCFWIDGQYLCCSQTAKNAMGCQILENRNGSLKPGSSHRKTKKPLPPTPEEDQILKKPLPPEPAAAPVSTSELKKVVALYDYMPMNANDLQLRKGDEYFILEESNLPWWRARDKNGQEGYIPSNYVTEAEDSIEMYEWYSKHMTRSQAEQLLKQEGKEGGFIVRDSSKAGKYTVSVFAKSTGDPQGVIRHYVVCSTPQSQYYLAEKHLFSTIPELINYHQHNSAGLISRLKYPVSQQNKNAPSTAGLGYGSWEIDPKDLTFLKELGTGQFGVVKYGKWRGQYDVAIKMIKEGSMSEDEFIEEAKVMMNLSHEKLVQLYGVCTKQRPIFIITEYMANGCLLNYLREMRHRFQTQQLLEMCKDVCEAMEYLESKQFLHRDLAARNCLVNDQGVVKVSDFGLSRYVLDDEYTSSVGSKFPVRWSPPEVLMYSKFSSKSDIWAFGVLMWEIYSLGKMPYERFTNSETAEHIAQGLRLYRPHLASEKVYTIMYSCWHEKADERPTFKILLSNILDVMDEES
# UniProt P22455, 467-755 N535K limits assumed: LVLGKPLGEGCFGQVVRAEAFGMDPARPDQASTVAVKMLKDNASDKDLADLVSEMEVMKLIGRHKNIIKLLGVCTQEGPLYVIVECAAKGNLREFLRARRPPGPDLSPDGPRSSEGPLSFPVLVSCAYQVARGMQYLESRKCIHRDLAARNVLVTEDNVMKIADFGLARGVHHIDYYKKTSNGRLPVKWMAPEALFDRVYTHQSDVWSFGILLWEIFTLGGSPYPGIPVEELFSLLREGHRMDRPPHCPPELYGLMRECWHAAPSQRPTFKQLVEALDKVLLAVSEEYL
# UniProt Q96PU5, whole entry, looked up: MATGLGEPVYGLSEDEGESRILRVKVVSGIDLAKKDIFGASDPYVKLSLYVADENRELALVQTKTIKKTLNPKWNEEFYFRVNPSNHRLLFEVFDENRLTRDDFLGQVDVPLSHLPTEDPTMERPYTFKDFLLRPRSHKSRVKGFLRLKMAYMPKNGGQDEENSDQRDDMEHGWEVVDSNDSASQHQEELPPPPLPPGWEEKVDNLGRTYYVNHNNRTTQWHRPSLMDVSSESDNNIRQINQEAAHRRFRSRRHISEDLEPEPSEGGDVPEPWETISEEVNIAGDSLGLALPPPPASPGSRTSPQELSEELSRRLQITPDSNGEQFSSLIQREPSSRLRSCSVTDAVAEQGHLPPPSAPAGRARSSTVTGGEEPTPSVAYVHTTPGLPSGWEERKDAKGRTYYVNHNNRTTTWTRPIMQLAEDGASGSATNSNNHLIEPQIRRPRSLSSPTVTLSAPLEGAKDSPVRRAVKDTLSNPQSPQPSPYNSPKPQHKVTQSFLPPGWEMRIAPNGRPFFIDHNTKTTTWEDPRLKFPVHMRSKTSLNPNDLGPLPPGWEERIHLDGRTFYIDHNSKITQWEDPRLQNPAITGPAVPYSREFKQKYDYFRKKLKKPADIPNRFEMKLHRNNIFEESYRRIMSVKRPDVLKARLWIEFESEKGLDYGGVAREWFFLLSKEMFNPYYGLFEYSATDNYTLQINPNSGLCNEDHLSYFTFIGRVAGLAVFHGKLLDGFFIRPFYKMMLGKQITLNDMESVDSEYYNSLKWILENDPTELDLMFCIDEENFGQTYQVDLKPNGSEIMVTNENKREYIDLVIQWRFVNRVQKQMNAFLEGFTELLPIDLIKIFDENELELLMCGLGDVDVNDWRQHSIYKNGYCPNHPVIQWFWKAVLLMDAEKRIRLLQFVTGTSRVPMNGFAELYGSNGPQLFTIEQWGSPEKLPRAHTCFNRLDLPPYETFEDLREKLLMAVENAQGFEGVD
# UniProt O75874, whole entry R132H: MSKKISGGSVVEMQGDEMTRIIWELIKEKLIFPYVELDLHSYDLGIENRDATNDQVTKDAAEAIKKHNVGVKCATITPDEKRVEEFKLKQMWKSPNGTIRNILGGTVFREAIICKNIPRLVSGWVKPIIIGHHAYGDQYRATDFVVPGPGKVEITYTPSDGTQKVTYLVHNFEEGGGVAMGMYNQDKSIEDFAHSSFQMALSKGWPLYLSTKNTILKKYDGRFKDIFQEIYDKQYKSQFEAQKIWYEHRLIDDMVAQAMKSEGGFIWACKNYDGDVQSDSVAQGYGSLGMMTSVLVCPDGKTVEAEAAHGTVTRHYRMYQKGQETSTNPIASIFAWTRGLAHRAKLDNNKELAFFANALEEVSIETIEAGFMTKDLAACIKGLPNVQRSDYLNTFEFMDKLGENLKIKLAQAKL
# Values joined by “and” are separate records of one study, mostly repeats; a detail may differ. ± gives the spread as reported.
# E3 ubiquitin-protein ligase NEDD4: E3 ubiquitin-protein ligase NEDD4 (Homo sapiens, UniProt P46934)
# Lysophospholipase-like protein 1: Lysophospholipase-like protein 1 (Mus musculus, UniProt Q3UFF7)
# GRM4: Metabotropic glutamate receptor 4 (GRM4, Homo sapiens, UniProt Q14833)
# RPA1 N-terminal domain: Replication protein A 70 kDa DNA-binding subunit, N-terminal domain (RPA1, Homo sapiens, UniProt P27694)
Compound,target,assay,test system,conditions,scale,endpoint,value
COc1ccccc1-c1cc(C(F)(F)F)nc(S(C)(=O)=O)n1,"Secretin receptor (SCTR, Homo sapiens, UniProt P47872)","cAMP accumulation, positive allosteric modulator",CHO-K1 overexpressing target,added: secretin-family peptide mix at EC10-EC20,baseline: EC95 of peptide mix,Emax,49 ± 18%
Cc1cccc(-c2noc(-c3cn(CC(=O)NCc4ccc5c(c4)OCO5)c4nc(C)ccc4c3=O)n2)c1,"Catenin beta-1, residues 141-305 (CTNNB1, Homo sapiens, UniProt P35222)",isothermal titration calorimetry,,"concentration not given, 25 °C",,enthalpy change,-8.79 kJ/mol
CCOC(=O)/C=C/CNCCCN1c2ccccc2CCc2ccc([N+](=O)[O-])cc21,E3 ubiquitin-protein ligase NEDD4,"inhibitor, Ub-TR-FRET",,"11.11 µM, 1 h preincubation, HECT domain, added: ATP 2 mM",higher = more ubiquitination,ubiquitination TR-FRET signal AUC,76700 a.u. and 59900 a.u. and 61100 a.u.
CC(=O)c1cccc(S(=O)(=O)n2nc(CCCc3ccc(Cl)cc3)nc2N)c1,Lysophospholipase-like protein 1,"activator, gel-based ABPP FP-rhodamine",,,baseline: DMSO,probe labelling,1 fold
N#Cc1ccc2[nH]cc(/C=C/c3ccc(CO)cc3)c2c1,"Amyloid-beta precursor protein, Aβ1-40 (APP, Homo sapiens, UniProt P05067)","Aβ40 aggregation, thioflavin T fluorescence",,25 µM,,inhibition,11%
O=C(/C=C/c1ccc(O)c(OC(F)(F)F)c1)C(CCOCCOC1CCCCO1)C(=O)/C=C/c1ccc(O)c(OC(F)(F)F)c1 (stereo not shown),"Amyloid-beta precursor protein (APP, Homo sapiens, UniProt P05067)","SDS-PAGE western blot, refers to: Aβ1-42 species 75-200 kDa",,"30 µM, 24 h, 37 °C, added: Aβ 10 µM",baseline: DMSO control,Aβ band density,1860 ± 227%
O=C(O)c1cc(C(=O)N[C@@H](Cc2ccc(O)cc2)C(=O)O)cc([C@H]2CCN[C@@H]2C(=O)O)c1,"Glutamate receptor ionotropic, kainate 2 (Grik2, Rattus norvegicus, UniProt P42260)",radioligand binding,Sf9 membranes,"10 µM, homomeric receptor, added: [3H]kainate",,specific binding,84 ± 9%
COc1ccc(NC(=O)CN2CCCN(S(=O)(=O)c3ccc(F)c(F)c3)CC2)c(OC)c1,GRM4,"calcium mobilization, positive allosteric modulator",CHO cells with Gqi5,added: glutamate,baseline: PHCCC maximal response,maximal response,27 ± 1.8%
O=C(OC(C(F)(F)F)C(F)(F)F)N1CCc2c(cccc2-c2ccccc2)C1,"Fatty-acid amide hydrolase 1 (FAAH, Homo sapiens, UniProt O00519)","enzyme activity, inhibitor, fluorescence AAMCA substrate",,1 µM,,activity,inactive
O[C@@H]1[C@H](O)[C@@H]2C[C@@H]2[C@H]1n1cnc2c(NCc3cccc([125I])c3)nc(Cl)nc21,"Adenosine receptor A3 (ADORA3, Homo sapiens, UniProt P0DMS8)",,HEK293 cell membranes,"2 to 4 nM, room temperature",,time to maximal binding,3 min
COc1ccc(OC)c(C2C(C(=O)c3ccc(C)cc3)=C(O)C(=O)N2CC(C)C)c1 (stereo not shown),"fMet-Leu-Phe receptor (FPR1, Homo sapiens, UniProt P21462)","fMLF-induced calcium mobilization, antagonist",HL-60 expressing FPR1,"concentration not given, inactive if none at 50 µM",,antagonist activity,active
Cc1ncsc1-c1ccc([C@H](C)NC(=O)[C@@H]2C[C@@H](O)CN2C(=O)[C@@H](NC(=O)CCCCCCC(=O)N2CCN(C[C@]3(C)CCC(c4ccc(Cl)cc4)=C(CN4CCN(c5ccc(C(=O)NS(=O)(=O)c6ccc(N[C@H](CCN7CCOCC7)CSc7ccccc7)c(S(=O)(=O)C(F)(F)F)c6)cc5)CC4)C3)CC2)C(C)(C)C)cc1,"Induced myeloid leukemia cell differentiation protein Mcl-1 (MCL1, Homo sapiens, UniProt Q07820)",western blot,WI-38 non-senescent,"concentration not given, 24 h",,protein level,no effect
O=C(Nc1nccs1)C12CC1/C(=N\O)c1ccccc1O2 (stereo not shown),GRM4,"positive allosteric modulator, calcium mobilization",CHO expressing Gqi5,"concentration not given, added: glutamate EC20",baseline: (±)-PHCCC,response,103 ± 8.4%
Nc1ncnc2c1c(-c1ccc(C(=O)Nc3cc(OC(F)(F)F)ccn3)cc1)nn2[C@@H]1CCCN(C(=O)C2CC2)C1,"Tyrosine-protein kinase BTK, non-phosphorylated (BTK, Homo sapiens, UniProt Q06187)",TR-FRET binding kinetics,,"37 °C, unphosphorylated enzyme",,residence time,39 ± 4 min
Cc1ccc(NC(=O)c2ccc(CN3CCC(N(C)C)C3)c(C(F)(F)F)c2)cc1N1Cc2cnc(Nc3cnn(C)c3)nc2N(C)C1=O (stereo not shown),"FGFR4/Transcription factor ETV6 (Homo sapiens, UniProt P22455+P41212, N535K)",cell proliferation,Ba/F3 TEL-FGFR4 N535K,72 h,,GI50,0.096 µM
Cc1[nH]c2cc(Cl)cc(Cl)c2c1CCn1cc(CCCN)nn1,"Glucagon-like peptide 1 receptor (GLP1R, Homo sapiens, UniProt P43220)","cAMP accumulation, positive allosteric modulator, HTRF",,"0.6 µM, purified compound, added: GLP-1(9-36) at EC20",baseline: BETP,Emax,101 ± 8%
C/C=C/Cn1c(Cc2cc(OC)c(OC)c(OC)c2)nc2c(N)ncnc21,"Heat shock protein HSP 90-beta, N-terminal domain (HSP90AB1, Homo sapiens, UniProt P08238)",isothermal titration calorimetry,,298 K,,TΔS,-10.1 ± 0.753 kJ/mol
COc1ccc(NC(=O)CN2CCCN(S(=O)(=O)c3ccccc3F)CC2)c(OC)c1,GRM4,"calcium mobilization, positive allosteric modulator",CHO cells with Gqi5,added: glutamate,baseline: PHCCC maximal response,maximal response,36.6%
Cc1cc(NC(=O)c2ccc(C)c(S(=O)(=O)Nc3ccc(Cl)c(Cl)c3)c2)c(C(=O)O)cc1C,RPA1 N-terminal domain,"binding, fluorescence polarisation competition",,added: FITC-ATRIP probe,,ligand efficiency,0.18
COc1ccc(-n2cc(C(N)=O)c(=O)c3cc(CCc4cnc(C)nc4)ccc32)cc1,"Metabotropic glutamate receptor 2 (Grm2, Rattus norvegicus, UniProt P31421)","calcium mobilization, negative allosteric modulator",,"30 µM, added: glutamate 100 µM",baseline: glutamate maximum,response,1.61%
Cc1ccc(C(=O)Nc2cccc(C)c2C(=O)O)cc1S(=O)(=O)Nc1ccc(Cl)c(Cl)c1,RPA1 N-terminal domain,"binding, fluorescence polarisation competition",,added: FITC-ATRIP probe,,ligand efficiency,0.19
N#Cc1cnc(Nc2nc3ccccc3o2)nc1-c1ccc(Cl)cc1Cl,"Metabotropic glutamate receptor 5 (Grm5, Rattus norvegicus, UniProt P31424)","calcium mobilization, negative allosteric modulator",,added: glutamate EC80,baseline: glutamate maximum,maximal response,3 ± 0.4%
Nc1nc(SCc2ccc(Cl)cc2)nn1S(=O)(=O)c1ccc(C(F)(F)F)nc1,Lysophospholipase-like protein 1,"activator, gel-based ABPP, FP-rhodamine",HEK293 overexpressing Lysophospholipase-like protein 1,10 µM,,activation,7%
O=C(O)c1ccnc(C(=O)O)c1Nc1ccccc1[N+](=O)[O-],"Lysine-specific demethylase 4E (KDM4E, Homo sapiens, UniProt B2RXH2)","inhibitor, FDH-coupled spectrophotometry, refers to: formaldehyde",,200 µM,,remaining activity,6%
O=C(N[C@H]1CCCC[C@@H]1O)[C@@H]1CN(Cc2ccc(-n3cccn3)cc2)c2ccccc2O1,"Muscarinic acetylcholine receptor M1 (CHRM1, Homo sapiens, UniProt P11229)","calcium mobilization, positive allosteric modulator",high-expression cell line,added: acetylcholine EC20,baseline: acetylcholine max,efficacy,89 ± 2%
CC(C)(C)CC(C)(C)Nc1c(-c2ccc3c(c2)C(=O)N(C2CCC(=O)NC2=O)C3=O)nc2ccccn12 (stereo not shown),"WEE1/CRBN (Homo sapiens, UniProt P30291+Q96SW2)","degrader, HiBiT",Jurkat,5 h,,Dmax,> 98%
Cc1cc(NC(=O)c2cccc(NC(=O)C3=CC(C)(C)CC3=O)c2)ccc1Nc1nccc(-c2cccnc2)n1,"Mitogen-activated protein kinase 8 (MAPK8, Homo sapiens, UniProt P45983)","kinase activity, inhibitor",,"1.646 µM, unit not given, added: 10 mM GSH",baseline: DMSO,remaining activity,0.23
CCOC(=O)/C=C/CNCCCCN1c2ccccc2CCc2ccc(Cl)cc21,"E3 ubiquitin-protein ligase NEDD4-like (NEDD4L, Homo sapiens, UniProt Q96PU5)","inhibitor, Ub-TR-FRET",,"100 µM, 1 h preincubation, DMSO up to 2%, added: ATP 2 mM",higher = more ubiquitination,ubiquitination TR-FRET signal AUC,494000 a.u.
COC(=O)[C@@]1(C)C=C(C(=O)Nc2cccc(C(=O)NC34CC(Nc5nccc(-c6cccnc6)n5)(C3)C4)c2)C(=O)CC1,"Mitogen-activated protein kinase 10 (MAPK10, Homo sapiens, UniProt P53779)","enzyme activity, inhibitor",,0.006774 µM,,remaining activity,0.875 fraction of control
CCOC(=O)/C=C/CNCCCN1c2ccccc2CCc2ccccc21,E3 ubiquitin-protein ligase NEDD4,"inhibitor, Ub-TR-FRET",,"1.235 µM, 1 h preincubation, HECT domain, added: ATP 2 mM",higher = more ubiquitination,ubiquitination TR-FRET signal AUC,117000 a.u. and 122000 a.u. and 121000 a.u.
C[C@H](Nc1nc(N[C@@H](C)C2CC2)nc(-c2cccc(C(F)(F)F)n2)n1)C1CC1,"Isocitrate dehydrogenase [NADP] cytoplasmic, homodimer (IDH1, Homo sapiens, UniProt O75874, R132H)","enzyme activity, inhibitor, diaphorase/resazurin coupled",,,,maximal inhibition,91%

# For quick reference, copied from above:
Compound,target,assay,test system,conditions,scale,endpoint,value
O[C@@H]1[C@H](O)[C@@H]2C[C@@H]2[C@H]1n1cnc2c(NCc3cccc([125I])c3)nc(Cl)nc21,"Adenosine receptor A3 (ADORA3, Homo sapiens, UniProt P0DMS8)",,HEK293 cell membranes,"2 to 4 nM, room temperature",,time to maximal binding,3 min
CCOC(=O)/C=C/CNCCCN1c2ccccc2CCc2ccccc21,E3 ubiquitin-protein ligase NEDD4,"inhibitor, Ub-TR-FRET",,"1.235 µM, 1 h preincubation, HECT domain, added: ATP 2 mM",higher = more ubiquitination,ubiquitination TR-FRET signal AUC,117000 a.u. and 122000 a.u. and 121000 a.u.
